Experimental data collected from several papers.
Every numbered part comes from another study and shows a few of its results, in no order. Positions count from the first letter of the parent shown.

Study 1
Target: HLA class I histocompatibility antigen, A alpha chain, allele A*25:01 (Homo sapiens, UniProt P04439)
Effect on: peptide-MHC binding
Molecule type: peptide
Concentration: concentration not given
Molecule | binding
RMMATKDSF | inactive
RRAYSGKQY | inactive
MMWIPGWFG | inactive
QHAWPLPPL | inactive
EPFLVQFWI | inactive
FLYPSWSLY | inactive

Study 2
Target: Sal-like protein 4, full length isoform A (SALL4, Homo sapiens, UniProt Q9UJQ4, residues 1-1053)
UniProt Q9UJQ4, sequence (whole entry, looked up): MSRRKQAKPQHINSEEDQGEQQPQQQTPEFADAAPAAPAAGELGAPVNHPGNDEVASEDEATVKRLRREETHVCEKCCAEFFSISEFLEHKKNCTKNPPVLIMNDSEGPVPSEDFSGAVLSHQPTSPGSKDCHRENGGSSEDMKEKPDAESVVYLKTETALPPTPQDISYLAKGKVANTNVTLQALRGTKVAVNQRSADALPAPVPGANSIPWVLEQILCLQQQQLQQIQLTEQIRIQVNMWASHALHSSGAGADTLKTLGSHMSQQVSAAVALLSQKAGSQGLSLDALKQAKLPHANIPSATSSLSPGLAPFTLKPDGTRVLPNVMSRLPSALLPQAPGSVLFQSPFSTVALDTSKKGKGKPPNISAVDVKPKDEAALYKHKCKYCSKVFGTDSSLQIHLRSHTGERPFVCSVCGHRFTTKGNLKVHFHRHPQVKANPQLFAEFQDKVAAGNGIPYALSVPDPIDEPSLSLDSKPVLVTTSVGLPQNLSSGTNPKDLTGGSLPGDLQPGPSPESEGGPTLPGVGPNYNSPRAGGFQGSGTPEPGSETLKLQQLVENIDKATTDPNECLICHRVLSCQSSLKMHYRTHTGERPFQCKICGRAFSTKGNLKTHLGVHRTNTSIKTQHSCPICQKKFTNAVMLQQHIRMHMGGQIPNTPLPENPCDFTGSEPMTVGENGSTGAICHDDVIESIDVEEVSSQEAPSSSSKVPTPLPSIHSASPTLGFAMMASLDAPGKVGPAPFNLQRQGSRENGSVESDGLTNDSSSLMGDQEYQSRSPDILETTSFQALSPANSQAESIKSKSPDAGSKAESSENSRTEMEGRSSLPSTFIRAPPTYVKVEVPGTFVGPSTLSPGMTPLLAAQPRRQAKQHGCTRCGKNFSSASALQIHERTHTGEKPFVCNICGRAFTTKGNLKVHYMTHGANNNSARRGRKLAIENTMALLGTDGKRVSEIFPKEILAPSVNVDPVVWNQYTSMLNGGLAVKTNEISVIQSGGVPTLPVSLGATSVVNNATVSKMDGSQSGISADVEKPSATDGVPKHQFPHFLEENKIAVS
Method: universal PBM
Molecule type: double-stranded DNA, one strand shown
Sample: in vitro
Concentration: 600 nM
Setting: 8-mer, flanks averaged, mean of replicates
Direction: higher = stronger binding
Sequence | E-score
CCGCACCG | -0.284
AGGGGGAT | -0.168
ACTAAGTC | 0.0972
CTGCCCAA | -0.225
CCCGACTA | -0.253
CGACACCG | -0.287
ACAAGAGC | 0.0707
CGAAATCC | 0.0105

Study 3
Target: UBE2A UBC core domain (UniProt P49459)
UniProt P49459, sequence (whole entry, looked up): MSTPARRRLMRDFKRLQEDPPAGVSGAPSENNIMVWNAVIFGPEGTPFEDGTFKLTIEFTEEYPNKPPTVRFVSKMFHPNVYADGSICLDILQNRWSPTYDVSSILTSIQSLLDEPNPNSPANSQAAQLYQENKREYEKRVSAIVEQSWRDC
Method: yeast two-hybrid
Sample: yeast
Setting: mostly zero background
Relative to: not given
Direction: higher = stronger interaction
B1: TRIM68 RING domain (UniProt Q6AZZ1); chain LVEAIVEEVACPICMTFLREPMSIDCGHSFCHSCLSGLWEIPGESQNWGYTCPLCRAPVQPRNLRP
B2: TRIM47 RING domain (UniProt Q96LD4); chain MDGSGPFSCPICLEPLREPVTLPCGHNFCLACLGALWPHRGASGAGGPGGAARCPLCQEPFPDGLQLR
B3: ARIH1 RING domain (UniProt Q9Y4X5); chain NTRSSAQDMPCQICYLNYPNSYFTGLECGHKFCMQCWSEYLTTKIMEEGMGQTISCPAHGCDILVDDNTVM
B4: TRIM32 RING domain (UniProt Q13049); chain NLDALREVLECPICMESFTEEQLRPKLLHCGHTICRQCLEKLLASSINGVRCPFCSKITRITSLTQ
B5: MARCHF2 RING domain (UniProt Q9P0N8); chain RLLSTVIRALDTPSDGPFCRICHEGANGECLLSPCGCTGTLGAVHKSCLEKWLSSSNTSYCELCHTEFAVEKRPRPLTEWL
Molecule | lacZ reporter activity
B1 (TRIM68 RING domain) | 0
VPADASPDSKCPICLDRFDNVSYLDRCLHKFCFRCVQEWSKNKAECPLCKQPFDSIFHSV (TOPORS RING domain (UniProt Q9NS56)) | 0
KITELNPHLMCALCGGYFIDATTIVECLHSFCKTCIVRYLETNKYCPMCDVQVHKTRPLL (PCGF2 RING domain (UniProt P35227)) | 0
B2 (TRIM47 RING domain) | 0
GSEEEEIPFRCFICRQAFQNPVVTKCRHYFCESCALEHFRATPRCYICDQPTGGIFNPA (RNF113B RING domain (UniProt Q8IZP6)) | 0
B3 (ARIH1 RING domain) | 0
B4 (TRIM32 RING domain) | 0
B5 (MARCHF2 RING domain) | 0

Study 4
Target: CCNB1, cyclin fold, Cln2 fusion (human)
Method: yeast growth competition, sequencing
Sample: yeast
Setting: strong parent motif
Relative to: not given
Direction: higher = stronger binding
Starting sequence: viral docking peptide; KGVKRKLFAEDSS; partner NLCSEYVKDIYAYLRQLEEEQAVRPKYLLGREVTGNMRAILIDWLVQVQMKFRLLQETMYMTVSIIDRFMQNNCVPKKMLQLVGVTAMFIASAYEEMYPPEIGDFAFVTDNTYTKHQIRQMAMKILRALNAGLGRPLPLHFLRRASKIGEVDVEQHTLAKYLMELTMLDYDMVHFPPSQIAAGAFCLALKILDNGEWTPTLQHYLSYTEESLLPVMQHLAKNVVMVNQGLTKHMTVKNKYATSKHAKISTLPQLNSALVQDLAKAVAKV
Substitution | normalised enrichment score
KGVKRKLFAEDCS [S12C] | 2.77
KGVKRKLYAEDSS [F8Y] | 0.246
KGVKRALFAEDSS [K6A] | 2.03
KGVKRKLFAHDSS [E10H] | 0.553

A few entries again (study 2):
Sequence | E-score
ACAAGAGC | 0.0707
CCGCACCG | -0.284
CGAAATCC | 0.0105
